{"data": "Measured values pooled from the literature", "note": "Numbered parts are unrelated; each lists some results of a single study. Changes are numbered by the printed parent chain.", "sequence of UniProt P00519 (whole entry, unmodified, looked up)": "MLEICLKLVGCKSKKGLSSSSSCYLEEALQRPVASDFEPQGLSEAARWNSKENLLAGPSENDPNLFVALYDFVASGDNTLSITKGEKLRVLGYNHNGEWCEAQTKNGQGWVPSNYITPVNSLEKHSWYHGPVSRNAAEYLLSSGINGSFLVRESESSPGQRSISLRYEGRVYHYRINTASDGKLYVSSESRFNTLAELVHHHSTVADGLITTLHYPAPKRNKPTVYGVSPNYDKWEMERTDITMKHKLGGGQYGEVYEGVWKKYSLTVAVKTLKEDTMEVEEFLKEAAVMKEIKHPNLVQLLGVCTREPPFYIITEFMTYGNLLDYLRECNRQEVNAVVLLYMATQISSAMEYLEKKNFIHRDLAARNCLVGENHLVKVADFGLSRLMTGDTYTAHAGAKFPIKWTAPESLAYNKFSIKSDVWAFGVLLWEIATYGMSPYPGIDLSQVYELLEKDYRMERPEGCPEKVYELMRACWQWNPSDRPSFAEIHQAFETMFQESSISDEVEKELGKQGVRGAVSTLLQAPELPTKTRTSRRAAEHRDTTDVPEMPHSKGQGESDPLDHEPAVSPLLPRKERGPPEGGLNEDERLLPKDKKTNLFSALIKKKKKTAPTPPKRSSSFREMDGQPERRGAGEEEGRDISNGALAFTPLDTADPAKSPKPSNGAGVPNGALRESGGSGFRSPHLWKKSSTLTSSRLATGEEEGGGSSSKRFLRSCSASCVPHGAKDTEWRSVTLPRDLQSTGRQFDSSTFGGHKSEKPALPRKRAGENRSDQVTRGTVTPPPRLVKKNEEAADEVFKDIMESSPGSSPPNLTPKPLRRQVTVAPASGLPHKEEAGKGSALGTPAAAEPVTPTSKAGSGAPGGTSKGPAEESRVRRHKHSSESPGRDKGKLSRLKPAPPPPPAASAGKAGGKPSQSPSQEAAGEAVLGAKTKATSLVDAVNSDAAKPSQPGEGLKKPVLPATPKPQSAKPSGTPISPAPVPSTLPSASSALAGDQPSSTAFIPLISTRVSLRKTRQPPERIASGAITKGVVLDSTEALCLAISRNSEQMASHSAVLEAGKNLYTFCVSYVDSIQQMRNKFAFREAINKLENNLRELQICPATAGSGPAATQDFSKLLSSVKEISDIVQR", "sequence of UniProt Q13153 (whole entry, looked up)": "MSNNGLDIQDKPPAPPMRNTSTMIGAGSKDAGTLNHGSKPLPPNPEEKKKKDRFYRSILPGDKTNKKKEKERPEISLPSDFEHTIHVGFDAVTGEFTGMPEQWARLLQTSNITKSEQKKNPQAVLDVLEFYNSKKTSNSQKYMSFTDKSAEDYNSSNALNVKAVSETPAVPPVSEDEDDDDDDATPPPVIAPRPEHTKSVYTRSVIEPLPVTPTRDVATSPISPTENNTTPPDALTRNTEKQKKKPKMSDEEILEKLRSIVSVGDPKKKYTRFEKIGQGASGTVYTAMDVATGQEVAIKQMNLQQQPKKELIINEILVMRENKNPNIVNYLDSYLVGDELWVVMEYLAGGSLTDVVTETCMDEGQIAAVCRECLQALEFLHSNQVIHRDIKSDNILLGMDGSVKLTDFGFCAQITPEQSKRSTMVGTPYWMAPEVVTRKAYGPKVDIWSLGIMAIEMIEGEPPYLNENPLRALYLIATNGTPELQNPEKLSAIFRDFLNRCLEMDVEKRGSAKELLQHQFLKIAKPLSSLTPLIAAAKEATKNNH", "sequence of UniProt Q8IY84 (whole entry, looked up)": "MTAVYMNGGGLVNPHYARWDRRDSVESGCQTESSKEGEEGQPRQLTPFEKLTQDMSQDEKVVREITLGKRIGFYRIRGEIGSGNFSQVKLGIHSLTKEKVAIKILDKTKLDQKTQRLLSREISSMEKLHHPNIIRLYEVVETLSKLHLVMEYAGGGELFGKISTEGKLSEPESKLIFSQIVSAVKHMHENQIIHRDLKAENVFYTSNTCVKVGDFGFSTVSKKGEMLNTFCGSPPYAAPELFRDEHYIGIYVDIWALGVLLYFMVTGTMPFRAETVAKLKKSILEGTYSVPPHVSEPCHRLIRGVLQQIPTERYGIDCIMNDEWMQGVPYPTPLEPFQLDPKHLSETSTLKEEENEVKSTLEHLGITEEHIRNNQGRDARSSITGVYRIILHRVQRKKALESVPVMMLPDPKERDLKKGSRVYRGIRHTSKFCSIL"}
{"data": "Set 1", "target": "Dual specificity tyrosine-phosphorylation-regulated kinase 1B (DYRK1B, Homo sapiens, UniProt Q9Y463)", "observed": "enzyme activity", "action": "inhibitor", "technique": "radiometric", "tested at": "0.5 µM"}
{"Compound": "Cn1c2ccccc2c2c3c(c4c5ccccc5n(CCC#N)c4c21)CNC3=O", "remaining activity [%]": 25.6}
{"Compound": "Cc1cccc(-c2[nH]c(C(C)(C)C)nc2-c2ccc3c(c2)OCO3)n1", "remaining activity [%]": 99.6}
{"Compound": "Cn1sc(=O)n(Cc2ccccc2)c1=O", "remaining activity [%]": 103}
{"Compound": "CNC(=O)c1cc(Oc2ccc(NC(=O)Nc3ccc(Cl)c(C(F)(F)F)c3)cc2)ccn1", "remaining activity [%]": 93.2}
{"data": "Set 2", "SMILES": "CC[C@H](C)c1nc2cc(Nc3ccnc4ccc(S(=O)(=O)C(C)C)cc34)ccc2s1", "cell line": "L929", "observed": "necroptosis protection", "technique": "CCK-8", "together with": "TNF-α plus zVAD"}
{"conditions": "0.156 µM", "viability [%]": 27.3}
{"conditions": "0.313 µM", "viability [%]": 27.6}
{"conditions": "0.078 µM", "viability [%]": 27.1}
{"data": "Set 3", "target": "CCNF, cyclin fold, Cln2 fusion (human)", "technique": "yeast growth competition, sequencing", "matrix": "yeast", "notes": "strong parent motif", "relative to": "not given", "direction": "higher = stronger binding", "starting sequence": "viral docking peptide; YKVKRRLVFGADD"}
{"Change": "YKVKRRLVKGADD [F9K]", "normalised enrichment score": 0.765}
{"Change": "YKVKRRGVFGADD [L7G]", "normalised enrichment score": 0.383}
{"Change": "YKVKRILVFGADD [R6I]", "normalised enrichment score": 8.18}
{"Change": "YKVKRALVFGADD [R6A]", "normalised enrichment score": 8.93}
{"Change": "YKVKRRLVFYADD [G10Y]", "normalised enrichment score": 7.8}
{"Change": "YKVKRELVFGADD [R6E]", "normalised enrichment score": 7.16}
{"Change": "YKNKRRLVFGADD [V3N]", "normalised enrichment score": 6.35}
{"Change": "YKVKRREVFGADD [L7E]", "normalised enrichment score": 0.398}
{"data": "Set 4", "Compound": "Cn1cncc1[C@](O)(COc1ccc(C#N)cc1-c1ccc(OC(F)(F)F)cc1)c1ccc(C#N)cc1", "observed": "cell-free assay", "technique": "competition with immobilised ligand", "tested at": "1 µM"}
{"target": "Tyrosine-protein kinase ABL1, non-phosphorylated (ABL1, Homo sapiens, UniProt P00519, F317L)", "remaining binding [%]": 100}
{"target": "Receptor-type tyrosine-protein kinase FLT3 (FLT3, Homo sapiens, UniProt P36888, D835V/ITD)", "remaining binding [%]": 69}
{"target": "Serine/threonine-protein kinase NIM1 (NIM1K, Homo sapiens, UniProt Q8IY84)", "remaining binding [%]": 87}
{"target": "Serine/threonine-protein kinase PAK 1 (PAK1, Homo sapiens, UniProt Q13153)", "remaining binding [%]": 100}
{"target": "Receptor-type tyrosine-protein kinase FLT3 (FLT3, Homo sapiens, UniProt P36888, D835H)", "remaining binding [%]": 84}
